Published values collected from several papers.
Compare with care: the assays were run in different laboratories. Several values in a cell are separate wells, animals, samples, runs or records.
Target: Serine/threonine-protein kinase PAK 4 (PAK4, Homo sapiens, UniProt O96013)

`C=CC(=O)Nc1cccc(-c2cnc3[nH]cc(C(=O)NC(C)(C)C)c3n2)c1` gave an inhibition of 13% and 14% (kinase activity; 0.1 µM).
`CN1CCN(Cc2ccc(NC(=O)c3cccc(C#Cc4cnc(N)c5ncccc45)c3)cc2C(F)(F)F)CC1` gave a remaining binding of 76% (cell-free assay, competition with immobilised ligand; 50 nM).
`CNC(=O)C1CCN(c2cc(C)c(F)cc2NC(=O)c2ccc(-c3cc(O)ccc3C)c(C)c2)CC1` gave a remaining binding of 57% (binding, competition with immobilised ligand; 1 µM).
`CNC(=O)C[C@H](Cc1ccc(C#N)cc1)NC(=O)c1cc(-c2ccc(CN[C@H](C)c3ccc(C)cc3)o2)ccc1Cl` — result for “activity vs control”: 98% (enzyme activity, inhibitor; 1 µM).
With `COc1c(OCCCN2CCOCC2)ccc2c1N=C(NC(=O)c1cnc(N)nc1)N1CCN=C21` the remaining activity was 103% (kinase activity, inhibitor; 1 µM; baseline: untreated control).
For `CNS(=O)(=O)Nc1nccc(Cc2c(C)c3ccc(Oc4ncccc4F)cc3oc2=O)c1F`, the remaining binding was 92% (cell-free assay, competition with immobilised ligand; 10 µM).
The remaining binding of `Cc1ccc(-c2c(/C=C(\C#N)C(=O)NC(C)C)n(CCCO)c3ncnc(N)c23)cc1` is reported as 92% (cell-free assay, competition with immobilised ligand; 1 µM).
`COc1ccc(NC(=O)Nc2ccc3c(c2)C(=O)N(C(C)CO)CC(C)C(CN(C)Cc2ccc4c(c2)OCO4)O3)cc1` (stereo not shown) has a remaining binding of 100% (binding, competition with immobilised ligand; 10 µM).
The remaining binding of `C=CC(=O)N1CCCC(n2c(=O)c3ncccc3n(Cc3ccc(Oc4ccccc4)cc3)c2=O)C1` (stereo not shown) is reported as 100% (cell-free assay, competition with immobilised ligand; 1 µM).
With `COc1c(Cl)cccc1Nc1c(-c2ccncc2C#C[C@@]2(C)CCCN2C(=O)/C=C/CN(C)C)[nH]c2c1C(=O)NCC2` the remaining binding was 100% (cell-free assay, competition with immobilised ligand; 3 µM).
With `CN1CC[C@@H](COc2cnc(C#N)cc2-c2ccn3nc(NC(=O)C4CC4)cc3c2)C1` the inhibition was 8% (inhibitor, KinaseProfiler panel; 1 µM).
`COCC12C(=O)NC3C4(C(OC)CC1O)C1CC5(O)C(OC)C(O)C(OC(C)=O)(C1C5OC(=O)c1ccccc1)C3(O)C(OC)C24` (stereo not shown) has a remaining activity of 114% and 97% (kinase activity, inhibitor, ProQinase kinase profiling; 25 µM; baseline: control).
For `Cc1cccc(O[C@H]2CCC[C@@H](C(C)CNCc3ccncc3)C2)c1` (relative stereo), the inhibition was -15% (enzyme activity, inhibitor; 10 µM).
`CCN1CCN(Cc2ccc(C(=O)Nc3ccc(C)c(NCc4cnc5[nH]ccc5c4OC)c3)cc2C(F)(F)F)CC1` has a remaining binding of 100% (binding, competition with immobilised ligand; 1 µM).
With `COc1cc(Nc2nccc(-c3cnn4nc(OC)ccc34)n2)cc(C(F)(F)F)c1` the remaining binding was 92% (binding, competition with immobilised ligand; 1 µM).
With `Cc1cccc(-c2ccc3nc(NC(=O)C4CCOCC4)nn3c2)c1` the remaining activity was 101% (enzyme activity, Dundee kinase panel; 10 µM).
`Cc1cnc2nc1Nc1cccc(c1)COC/C=C/COCc1cc(ccc1OCCN1CCOCC1)N2` gave a remaining binding of 90% (binding; 0.1 µM).
For `CCn1cc(C(=O)O)c(=O)c2c(N)c(F)c(NC3CCCCC3)cc21`, the inhibition was 24.6% (kinase activity; 0.1 µM, together with: ATP at Km).
`CC(C)=CC1OC(C)(C)C2C=C3C(=O)C(Cl)=CC(O)C3C3C(O)C4OC4C(=O)C132` (stereo not shown) has a remaining binding of 100% (cell-free assay, competition with immobilised ligand; 10 µM).
With `Cc1cccc(-c2ccc3nc(NC(=O)C4CCCCC4)nn3c2)c1` the remaining activity was 96% (enzyme activity, Dundee kinase panel; 10 µM).
For `CNC1C[S+]2CC[S+]3CC[S+](C1)[Ru-4]321([N]=C=S)[n]2c3ccc(OC)cc3c3c4c(c5cc(F)c[n+]1c5c32)C(=O)NC4=O` (stereo not shown), the remaining binding was 100% (KinomeScan; 0.1 µM; baseline: untreated).
With `NC(=O)[C@@H](O)C[C@H]1CCc2sc3ncnc(O[C@H]4CC[C@H](N5CCOCC5)CC4)c3c21` the inhibition was 4% (enzyme activity, inhibitor; 10 µM).

A few entries again:
`C=CC(=O)Nc1cccc(-c2cnc3[nH]cc(C(=O)NC(C)(C)C)c3n2)c1` gave an inhibition of 13% and 14% (kinase activity; 0.1 µM).
`CN1CCN(Cc2ccc(NC(=O)c3cccc(C#Cc4cnc(N)c5ncccc45)c3)cc2C(F)(F)F)CC1` gave a remaining binding of 76% (cell-free assay, competition with immobilised ligand; 50 nM).
`CNC(=O)C1CCN(c2cc(C)c(F)cc2NC(=O)c2ccc(-c3cc(O)ccc3C)c(C)c2)CC1` gave a remaining binding of 57% (binding, competition with immobilised ligand; 1 µM).
